Published values gathered from unrelated publications.
Parts stem from different laboratories: compare values within a part only.

Set 1
Target: RING finger protein unkempt homolog, zinc fingers 1-6, GST-SBP tag (UNK, Homo sapiens, UniProt Q9C0B0, residues 30-357)
Chain of UniProt Q9C0B0 (30-357, looked up): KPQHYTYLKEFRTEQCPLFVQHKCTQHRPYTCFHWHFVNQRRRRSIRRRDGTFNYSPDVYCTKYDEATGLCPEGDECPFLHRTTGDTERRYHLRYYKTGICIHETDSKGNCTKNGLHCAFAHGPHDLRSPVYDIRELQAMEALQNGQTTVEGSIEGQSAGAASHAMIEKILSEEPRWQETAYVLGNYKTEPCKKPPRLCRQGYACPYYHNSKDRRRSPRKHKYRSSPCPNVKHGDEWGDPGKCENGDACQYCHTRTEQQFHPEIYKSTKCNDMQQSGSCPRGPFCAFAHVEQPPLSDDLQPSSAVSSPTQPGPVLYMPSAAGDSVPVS
Method: RNA Bind-n-Seq
Molecule type: RNA
Medium: in vitro
Concentration: not given
Notes: RNA with constant flanks, ends assumed
Baseline: input RNA pool
Direction: higher = stronger binding
All sequences stand within: GGGAGUUCUACAGUCCGACGAUC … CAACAGAGGAUUGAGCAUCA
| Oligonucleotide | bound/input enrichment |
| --- | --- |
| UGUAACUUAUCUGUAAAAGGUUCCCCCCCCCUACUGUCAAAAAAUAUGCAUGUAUAGUAAUCCGGACUUCAUUCCUCCAUGUUUUCUUCCCUUAUCUUACUGUCAUUGUCCUUAAACCUU | 1.25 ratio |
| UUUUGGAAACAGUUCAGGCUUUGGGGUGAGCCUGUCAAUCUUCGUGAACAACAUGAUGCUUCCGAGUUCUUUAAUUCUUUGGUGGAUAGUUUAGAUGAAGCUUUAAAAGCCUUAGGGCAU | 1.72 ratio |
| UGUUUUGCACGUAUGGUUGGAUGUACUGGAAAAGUCAUAGGAAUUGAUCACAUUAAAGAGCCCGCCGAUGACUCAGUAAAUAAUGUCAGGAAGGACGAUCCAACACUUCUGUCUUCAGGG | 0.247 ratio |
| ACGCGAUGACAGUGACCUGGCCAUCGGCACUCUCCUGGGAGGACUGGCUCAGGGCCAUUUAACCGCUACAGCUUCAUGCCUCUUGCCACCAAUCAGACAUUAGCAAUUCCUUUCUCUUUU | 0.379 ratio |
| UCAGACAUGGACUACAUCCAGACCGACGCCAUCAUCAACUAUGGAAACUCGGGAGGCCCGUCCGUAAACCUGGACGGUGAAGUGAUUGGAAUUAACACUUUGAAAGUGACAGCUGGAAUC | 0.0934 ratio |
| CUAAUCCCCUUCGUUGCUCCACCACUGGUCAUGCUGAUGACAAAAACUUAUAUUCCCAUAUCCGCUUUUACUCAGAUGGCUUAUGGAGCCAGUUUCCUAUCUUUCUUGGGUGGGAUCAGA | 0.256 ratio |
| UGUACCGACCUUCUGAACAAGGCCAACACCUAUGCAGAGCAACAUUUUGCAGAUGUUGUACUCCGUGAAGAAUUUCUCAAUCUUGGCAUCGAACAAGUGUGCAGCUUAAUCUCAAGUGAC | 0.0597 ratio |
| UUCCGACAGUUUAUACUGGUUAUGAAUGCUUUAGAUAACAGAGCUGCCCGAAACCAUGUUAACCGAAUGUGCCUGGCAGCUGAUGUUCCUCUUAUUGAAAGUGGAACAGCUGGGUAUCUU | 0.116 ratio |
| AGCAUGGUUCGGCAUUCUUCAUCUCCAUAUGUAGUAUAUCCUUCGGAUAAGCCUUUCCUUAACCGUGAUCUACGACGCUCCCCAAGUAAGCCUACACUUGCCUAUCCAGAAAGCAACAGC | 0.117 ratio |
| AUAACCAUCUAUCGGGAAGAGGGCAUUCUAGGAUUUUUCGCGGGUCUUGUUCCUCGCCUUCCCGGUGACAUCCUUUCUUUGUGGCUGUGUAACUCACUGGCCUACCUCGUCAAUACCUAU | 0.259 ratio |
| AUAAAGGCUAUGUUGAGUGGUCCAGGUCAGUUUGCUGAGAAUGAAACCAACGAGGUCAAUUUCCGAGAGAUCCCCUCACAUGUGCUAUCAAAAGUGUGCAUGUAUUUUACCUACAAGGUC | 0.103 ratio |

Set 2
Target: Interferon regulatory factor 7, full length, phosphomimetic (IRF7, Homo sapiens, UniProt Q92985, residues 1-503, S101K/S471D/S472D/S475D/S476D/S477D/S483D/S484D/S487D)
Method: protein-binding microarray
Molecule type: double-stranded DNA, one strand shown
Medium: in vitro
Concentration: 250 nM
Notes: 60-bp whole probe
Together with: salmon DNA 0.4 mg/ml
Baseline: random background probes
Direction: higher = stronger binding
All sequences stand within: GCCTAGCAC … GTCTTGATTCGCTTGACGCTGCTG
Construct (chain): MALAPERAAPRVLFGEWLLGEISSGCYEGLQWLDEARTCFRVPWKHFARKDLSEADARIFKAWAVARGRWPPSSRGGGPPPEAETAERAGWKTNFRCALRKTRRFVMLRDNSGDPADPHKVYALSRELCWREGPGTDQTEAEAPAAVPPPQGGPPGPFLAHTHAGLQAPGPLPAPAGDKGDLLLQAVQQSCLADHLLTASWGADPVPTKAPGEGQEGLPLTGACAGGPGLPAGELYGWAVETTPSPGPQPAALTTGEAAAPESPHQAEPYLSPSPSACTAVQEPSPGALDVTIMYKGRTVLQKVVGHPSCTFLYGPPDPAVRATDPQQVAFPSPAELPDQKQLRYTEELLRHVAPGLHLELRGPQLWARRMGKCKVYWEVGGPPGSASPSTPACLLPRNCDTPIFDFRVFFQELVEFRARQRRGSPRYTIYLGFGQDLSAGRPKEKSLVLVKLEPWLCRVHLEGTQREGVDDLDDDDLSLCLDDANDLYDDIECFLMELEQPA
| Oligonucleotide | log fluorescence |
| --- | --- |
| GACGGTCTCCTGCTCCTGACGTGCTAG | -0.338 z-score |
| TTAGGTTGCGGTCTCGGTTAGTGCTAG | 1.08 z-score |
| GACGGTATCCTTATCCTGTCGTGCTAG | 0.438 z-score |
| TACGATTCCAGTTTCGAGACGTGCTAG | 4.87 z-score |
| GACGATATCGGGTTTCGGGACGTGCTA | 2.14 z-score |
| GACGCTTTCGGGTATCGGGACGTGCTA | 1.44 z-score |
| TTAGGTTTTCTTTCCCTTTAGTGCTAG | 2.26 z-score |
| GGGTCACTCAATCTCAACAGGTGCTAG | 0.592 z-score |
| GACGAACTGAGTCTCGAGTCGTGCTAG | 1.57 z-score |
| GACGATATCCGGACTGGAGACGTGCTA | -0.192 z-score |
| GACGGTATCCCTATCCTGACGTGCTAG | -0.322 z-score |
| TTCTGAATGCCCTTCCATCACGTGCTA | -0.402 z-score |
| GACGGACTGATACTGCTGACGTGCTAG | -0.459 z-score |
| GACGGTATCGGACTGGGGATGTGCTAG | -0.152 z-score |
| CTGCCTTCAGAGCTGTCTGTGTGCTAG | -0.33 z-score |
| GACGTTTTCGGGTATCGAGACGTGCTA | 2.15 z-score |
| GACGGTATCCTTATCCTGAAGTGCTAG | 0.308 z-score |
| TTAGGTATCGGGACTTGGTTAGTGCTA | -0.012 z-score |
| CTCCCCCTCCCCCTCAGATCGTGCTAG | -0.203 z-score |
| TTAGGACAGGGGACTGGGTTAGTGCTA | -0.33 z-score |
| GACGATTTCAGTATCTAGACGTGCTAG | 0.216 z-score |
| CTTTTTTTCCGAGTGAGTAAGTGCTAG | 2.26 z-score |
| AAGGTATTATTTATTGTAGCGTGCTAG | 0.554 z-score |
| GACAATATCGGGTATCGAGACGTGCTA | 0.0514 z-score |
| GACGCACTGCTTCTCCTGACGTGCTAG | 0.237 z-score |

Set 3
Target: Histone acetyltransferase KAT6A, winged helix 1, GST fusion (KAT6A, Homo sapiens, UniProt Q92794, residues 1-85)
Method: protein binding microarray
Molecule type: double-stranded DNA, one strand shown
Medium: in vitro
Concentration: not given
Notes: 8-mer, flanks averaged, mean of 2 arrays, mostly near background
Baseline: not given
Direction: higher = stronger binding
Residues (chain): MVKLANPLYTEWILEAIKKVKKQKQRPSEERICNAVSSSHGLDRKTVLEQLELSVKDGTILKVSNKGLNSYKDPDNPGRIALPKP
| Oligonucleotide | E-score |
| --- | --- |
| CTTTCCGA | 0.108 |
| AACTCTCC | -0.117 |
| ATTAAAAT | -0.042 |
| AAGGCCGC | 0.34 |
| CAGACGCC | 0.0434 |
| ATGGCATA | -0.246 |
| CTGCTAGA | -0.205 |
| ACGTGCAC | -0.0162 |
| GAAGCCAC | -0.0446 |
| AGGCGTGA | -0.0816 |
| AAGCAGCT | -0.0793 |
| CAGCCGGG | 0.165 |
| GCTCAGTA | -0.0993 |
| GTGTTTTA | 0.0579 |
| AACGTCTC | -0.162 |
| CCCTCAAA | -0.199 |
| ACATTGAT | 0.00499 |
| CCCACGCG | 0.292 |
| CCCGATCC | -0.0338 |
| ACGGTGAC | 0.0603 |
| GATATAGC | 0.00443 |
| CAACGGAG | 0.0359 |

Set 4
Target: RNA binding protein fox-1 homolog 2, RRM domain, GST-SBP tag (RBFOX2, Homo sapiens, UniProt O43251-10, residues 100-194)
Method: RNA Bind-n-Seq
Molecule type: RNA
Medium: in vitro
Concentration: 365 nM
Notes: natural RNA segment, single round, ends assumed
Baseline: no-protein control
Direction: higher = stronger binding
All sequences stand within: GGGAGUUCUACAGUCCGACGAUC … UGGAAUUCUCGGGUGCCAA
Construct (chain): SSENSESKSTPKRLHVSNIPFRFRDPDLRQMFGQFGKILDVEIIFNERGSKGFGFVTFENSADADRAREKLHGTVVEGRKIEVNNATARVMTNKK
| Oligonucleotide | RBNS enrichment (R) |
| --- | --- |
| GUCCCUGGUGGCUUCUGGAGGGAAGCUGUACCUCUAGAUACAUUUUUCUUUUCCUUCAGAGACCGUGACAGAGGGAGCUCUGUCAGCCGGAAGUUCAGGCCACCAGACGU | 0.254 |
| UGUCUGACCAAGGUCAAGGGGCAGGUGCAGAGGUGGCAGGGAUGGCUCCGAAGCCAGAAAUGCCUUAAACUGCAACGUCCCGUCCCUUCCCCACCCCCAUCCCAUCCCCA | 0.182 |
| UCCUACCUUACAUGAAAUCCAUUCAACCGGCUCUGGACACUUCUCUUAUCUGUUCCCUUCCUGGUUUCCAAAGAAGCCCUCUGUGAACAUCAUCAAAGCAUGGGUACCCC | 2.65 |
| CCCACCACGGACUGCUCAGCCUGCUUCUCUCCCGGAACUUAAGGUCCAGCCAGACUUCAGGAUCUGUUGCAGGAGUUGGACUCACUGUGGGAAAAGCAGCGUUCCCUCUC | 0.261 |
| ACAGCGACUGGGAAAUAAUGGUCCCUACUUGCAUAAUUUGACUUCAGGCUUUUGGAGAAAAAGGACCCAAGUGACACUGAUGUUUACAAAGUACCUAUAAAACCCUGUAC | 0.356 |
| CUGCUCUUGCUUUUCAGAGAGCCAUCAUGGUCAUGUCAUGCUGAGGUCACAUGUAUAAAAUUAGCUUUUGUGUAUGUAUACCGUUUAAAGGAUUCCCCCACCCCCACUCC | 0.315 |
| AAGAAAAUGCUUUUGGUUACUGAUACAUUUUUCCCUAAUUGACCUUUUCUAUUACUAAAUCUGAAAUAAAAUCAGUUUCUUUCCAGUUUAAAUGUUAACCAUUUGCAGAU | 0.385 |
| AGUCAACAGCAAGAGCAAGAAGCACAUAGGAACUAUACCUGCAACCAAGCUGGCAUAAGAACCAAGACCUUCAAAGCAGCCUGAACUCAAGAUGACAUAUUUUACAAGUU | 0.621 |
| GUCCCGAGUAGGUGCCCAGCCCCUCUUGGGUACCAGAGUGGUUAUAGCGACACACUCCUCAUCCAGGCUUCCCAAGAUACACUAGCUCUGGGACACCCCAGGCAUGCUCU | 0.564 |
| UUUUCAUAUCAUGUGCUGUAAAGUUUUCCUAAAUGAGGCUUUAACGUAAACACUGGUGACAUAAACCAUUCAUUGCUACGUUGCUUAUUGUGUUUUUAUGCUGUUUUAUA | 0.774 |
| GGACCUCUGGUGAGAGGCCAGUGCCCUGCCCCACCCUGGAGCUUCAAAUAAAGAGCUUUUUACCCCCUCUUGCCUGGUGCUGCCCUGUUGAAGAUAGGGGAUUCGAGGUU | 0.394 |
| AUGCUAAUAUGUAAAGUUCAUGCCAUCCAGGCAUUUAAGAGCGAUCCUCAUCCCUUCAGCAAUAUGUAUUUGAGUUCACACUAUUUCUGUUUUACAGCAGUUUUGAAAAA | 0.399 |

Set 5
Organism: Saccharomyces cerevisiae
Read-out: binding
Method: competitive growth deep sequencing
Molecule type: peptide
Strain: cyclin E1-Cln2 fusion strain
Notes: peptide tiling library
Direction: direction not given
| Molecule | enrichment score |
| --- | --- |
| VSRNLRSSLKSSLHTL | -1.88 |
| RRVLCFDS | 0.311 |
| NFETPEAETPIRSPFK | 1.4 |
| RKLDLEGIGR | -0.358 |
| SCCKRKLVVGNGPEGP | -1.12 |
| GFGFLLFICKLTF | 0.46 |
| DWDTVERQEEEAPSWD | 2.16 |
| TTTTSPRTPPPLTVQD | 1.19 |
| LRRKLFLDGNGSIS | -1.04 |
| RKLHFEDEVT | 2.59 |
| KVKRRLDLDIDGLQKE | 0.674 |
| ARKRLELGNLGNPQ | -0.965 |
| PPKPLKKLRFDIEGSD | -0.102 |
| PPTFLSTGEIHAFLSS | -0.0906 |
| NNIRKALSFDNRGEEH | -1.69 |
| GAEELEDLVHFSVSEL | 2.2 |
| LRRQLSFSED | 0.907 |

Repeated from above (set 5):
| Molecule | enrichment score |
| --- | --- |
| GFGFLLFICKLTF | 0.46 |
| DWDTVERQEEEAPSWD | 2.16 |
| TTTTSPRTPPPLTVQD | 1.19 |
| LRRKLFLDGNGSIS | -1.04 |
| RKLHFEDEVT | 2.59 |
